Published values gathered from unrelated publications.
Each line is one published result; not all experiments were run side by side. Values joined by “and” are separate records of one study, mostly repeats; a detail may differ. ± marks the error that the study gave.
EPHB4: Ephrin type-B receptor 4 (EPHB4, Homo sapiens, UniProt P54760)
Chain of UniProt P54760 (whole entry, looked up): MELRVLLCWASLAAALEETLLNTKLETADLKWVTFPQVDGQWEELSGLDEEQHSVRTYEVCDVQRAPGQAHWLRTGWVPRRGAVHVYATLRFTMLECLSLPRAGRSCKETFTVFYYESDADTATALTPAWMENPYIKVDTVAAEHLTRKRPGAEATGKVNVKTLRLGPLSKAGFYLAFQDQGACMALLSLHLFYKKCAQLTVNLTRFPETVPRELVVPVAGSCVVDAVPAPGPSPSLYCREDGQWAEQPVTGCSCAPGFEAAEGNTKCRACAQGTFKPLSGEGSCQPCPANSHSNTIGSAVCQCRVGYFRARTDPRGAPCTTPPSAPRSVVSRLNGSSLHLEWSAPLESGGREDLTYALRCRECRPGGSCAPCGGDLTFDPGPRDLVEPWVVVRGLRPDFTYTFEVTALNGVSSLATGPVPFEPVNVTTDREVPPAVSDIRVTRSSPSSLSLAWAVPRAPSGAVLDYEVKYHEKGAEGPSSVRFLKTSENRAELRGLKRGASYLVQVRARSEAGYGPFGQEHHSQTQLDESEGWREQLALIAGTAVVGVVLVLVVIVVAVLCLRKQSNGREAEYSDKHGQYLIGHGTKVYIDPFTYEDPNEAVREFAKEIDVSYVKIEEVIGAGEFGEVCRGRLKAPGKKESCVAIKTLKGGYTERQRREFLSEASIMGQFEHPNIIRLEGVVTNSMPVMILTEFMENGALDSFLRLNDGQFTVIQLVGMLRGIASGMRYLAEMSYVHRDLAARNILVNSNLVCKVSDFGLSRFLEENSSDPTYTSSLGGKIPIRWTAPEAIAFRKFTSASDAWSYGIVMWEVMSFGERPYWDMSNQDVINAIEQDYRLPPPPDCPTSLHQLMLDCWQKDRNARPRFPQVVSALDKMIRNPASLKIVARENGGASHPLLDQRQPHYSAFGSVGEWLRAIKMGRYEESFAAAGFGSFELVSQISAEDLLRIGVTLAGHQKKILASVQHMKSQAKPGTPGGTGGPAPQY
ERBB2: Receptor tyrosine-protein kinase erbB-2 (ERBB2, Homo sapiens, UniProt P04626)
HUNK: Hormonally up-regulated neu tumor-associated kinase (HUNK, Homo sapiens, UniProt P57058)
Chain of UniProt P57058 (whole entry, looked up): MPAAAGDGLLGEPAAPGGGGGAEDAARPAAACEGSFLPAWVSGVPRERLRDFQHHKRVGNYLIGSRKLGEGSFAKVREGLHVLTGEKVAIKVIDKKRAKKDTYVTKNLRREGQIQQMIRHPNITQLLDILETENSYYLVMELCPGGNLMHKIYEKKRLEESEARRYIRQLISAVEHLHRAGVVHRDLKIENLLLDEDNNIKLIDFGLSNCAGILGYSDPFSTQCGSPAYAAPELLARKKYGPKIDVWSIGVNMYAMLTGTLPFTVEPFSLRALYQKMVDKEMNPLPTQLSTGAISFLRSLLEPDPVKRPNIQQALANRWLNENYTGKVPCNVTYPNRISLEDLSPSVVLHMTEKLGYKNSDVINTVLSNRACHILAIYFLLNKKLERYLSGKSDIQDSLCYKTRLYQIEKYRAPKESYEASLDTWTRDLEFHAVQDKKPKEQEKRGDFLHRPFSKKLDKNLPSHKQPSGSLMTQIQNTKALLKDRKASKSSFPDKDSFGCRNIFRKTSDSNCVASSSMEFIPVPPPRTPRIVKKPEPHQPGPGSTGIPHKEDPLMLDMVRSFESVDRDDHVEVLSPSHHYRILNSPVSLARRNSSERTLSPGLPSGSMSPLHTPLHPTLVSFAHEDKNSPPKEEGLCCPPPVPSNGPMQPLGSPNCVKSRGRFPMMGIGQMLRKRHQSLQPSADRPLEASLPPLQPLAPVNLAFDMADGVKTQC
KDM4B: Lysine-specific demethylase 4B (KDM4B, Homo sapiens, UniProt O94953)
Chain of UniProt Q16774 (whole entry, looked up): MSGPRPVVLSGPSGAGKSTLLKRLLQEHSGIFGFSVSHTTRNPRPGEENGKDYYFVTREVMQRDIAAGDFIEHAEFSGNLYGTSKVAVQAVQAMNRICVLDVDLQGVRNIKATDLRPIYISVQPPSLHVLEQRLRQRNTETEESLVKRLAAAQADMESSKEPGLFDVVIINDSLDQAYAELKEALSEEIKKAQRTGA
Chain of UniProt O94953 (whole entry, looked up): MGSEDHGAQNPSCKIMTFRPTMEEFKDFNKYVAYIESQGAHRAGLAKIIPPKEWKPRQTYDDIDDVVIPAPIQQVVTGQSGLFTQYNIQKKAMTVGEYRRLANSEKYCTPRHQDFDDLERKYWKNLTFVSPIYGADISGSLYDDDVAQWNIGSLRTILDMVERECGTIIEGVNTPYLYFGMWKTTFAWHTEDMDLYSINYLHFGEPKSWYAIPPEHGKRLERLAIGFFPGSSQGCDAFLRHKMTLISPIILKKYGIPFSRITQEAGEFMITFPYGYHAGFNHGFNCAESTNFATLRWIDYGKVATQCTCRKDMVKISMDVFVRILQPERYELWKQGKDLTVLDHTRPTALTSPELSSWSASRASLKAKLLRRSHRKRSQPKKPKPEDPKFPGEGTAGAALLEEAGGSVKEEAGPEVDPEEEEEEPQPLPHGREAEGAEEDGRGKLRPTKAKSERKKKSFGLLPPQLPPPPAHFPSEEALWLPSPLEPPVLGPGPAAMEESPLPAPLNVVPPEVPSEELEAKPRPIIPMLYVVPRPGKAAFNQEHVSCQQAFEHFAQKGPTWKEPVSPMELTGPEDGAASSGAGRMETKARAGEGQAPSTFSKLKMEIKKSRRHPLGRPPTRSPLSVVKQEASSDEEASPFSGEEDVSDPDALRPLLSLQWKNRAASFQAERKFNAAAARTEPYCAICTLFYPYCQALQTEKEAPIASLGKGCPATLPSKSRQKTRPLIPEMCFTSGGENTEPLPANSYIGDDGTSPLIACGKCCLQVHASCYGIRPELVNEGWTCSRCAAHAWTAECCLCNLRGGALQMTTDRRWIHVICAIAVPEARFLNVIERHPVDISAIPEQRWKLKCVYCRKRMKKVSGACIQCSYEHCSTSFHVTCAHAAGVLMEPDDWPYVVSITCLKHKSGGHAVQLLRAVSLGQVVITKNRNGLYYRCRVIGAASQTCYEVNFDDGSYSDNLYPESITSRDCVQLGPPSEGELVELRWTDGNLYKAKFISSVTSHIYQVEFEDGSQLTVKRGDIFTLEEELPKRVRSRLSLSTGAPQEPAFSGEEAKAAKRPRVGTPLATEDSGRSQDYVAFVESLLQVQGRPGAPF
Chain of UniProt Q6NT16 (whole entry, unmodified, looked up): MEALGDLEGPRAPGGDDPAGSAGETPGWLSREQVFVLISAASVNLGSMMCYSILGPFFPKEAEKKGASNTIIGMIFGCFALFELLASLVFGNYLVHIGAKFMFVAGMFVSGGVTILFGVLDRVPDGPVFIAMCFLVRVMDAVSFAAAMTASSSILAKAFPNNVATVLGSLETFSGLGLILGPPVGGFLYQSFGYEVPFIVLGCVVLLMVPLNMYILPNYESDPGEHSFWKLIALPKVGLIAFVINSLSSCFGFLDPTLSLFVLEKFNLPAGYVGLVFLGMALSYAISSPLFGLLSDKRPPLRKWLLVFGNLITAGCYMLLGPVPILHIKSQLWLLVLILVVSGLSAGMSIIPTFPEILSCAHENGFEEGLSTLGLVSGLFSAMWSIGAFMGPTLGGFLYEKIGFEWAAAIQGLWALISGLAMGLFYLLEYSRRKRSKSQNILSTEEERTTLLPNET
Chain of UniProt Q01959 (whole entry, unmodified, looked up): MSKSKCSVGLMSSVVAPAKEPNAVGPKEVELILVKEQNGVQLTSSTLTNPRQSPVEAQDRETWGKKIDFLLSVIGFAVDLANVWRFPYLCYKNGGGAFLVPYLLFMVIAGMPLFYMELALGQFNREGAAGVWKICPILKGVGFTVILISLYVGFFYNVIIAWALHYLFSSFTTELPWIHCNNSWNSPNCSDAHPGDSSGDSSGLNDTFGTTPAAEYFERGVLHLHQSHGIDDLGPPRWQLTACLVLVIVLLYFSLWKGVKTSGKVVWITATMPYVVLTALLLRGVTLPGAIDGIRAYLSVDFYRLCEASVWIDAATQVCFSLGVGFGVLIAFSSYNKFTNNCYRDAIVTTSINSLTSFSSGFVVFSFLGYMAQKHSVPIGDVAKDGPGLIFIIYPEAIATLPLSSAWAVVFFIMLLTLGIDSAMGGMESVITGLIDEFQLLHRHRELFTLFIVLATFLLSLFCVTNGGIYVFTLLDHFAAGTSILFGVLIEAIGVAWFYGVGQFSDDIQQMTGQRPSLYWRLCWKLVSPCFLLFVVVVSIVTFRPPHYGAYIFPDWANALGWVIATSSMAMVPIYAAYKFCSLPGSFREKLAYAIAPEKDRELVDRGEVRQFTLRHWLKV
Chain of UniProt P51575 (whole entry, unmodified, looked up): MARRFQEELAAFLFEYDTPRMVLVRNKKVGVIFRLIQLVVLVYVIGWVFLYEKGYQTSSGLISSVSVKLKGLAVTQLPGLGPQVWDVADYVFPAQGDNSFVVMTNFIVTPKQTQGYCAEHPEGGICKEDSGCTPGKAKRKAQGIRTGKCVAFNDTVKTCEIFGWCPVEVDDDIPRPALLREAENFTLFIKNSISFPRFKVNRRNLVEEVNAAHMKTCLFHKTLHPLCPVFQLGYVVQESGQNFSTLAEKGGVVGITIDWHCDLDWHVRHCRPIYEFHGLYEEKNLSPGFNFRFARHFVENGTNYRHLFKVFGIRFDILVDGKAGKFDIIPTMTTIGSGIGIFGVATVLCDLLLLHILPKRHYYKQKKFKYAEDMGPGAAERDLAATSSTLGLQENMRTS
Chain of UniProt Q8WTQ7 (whole entry, looked up): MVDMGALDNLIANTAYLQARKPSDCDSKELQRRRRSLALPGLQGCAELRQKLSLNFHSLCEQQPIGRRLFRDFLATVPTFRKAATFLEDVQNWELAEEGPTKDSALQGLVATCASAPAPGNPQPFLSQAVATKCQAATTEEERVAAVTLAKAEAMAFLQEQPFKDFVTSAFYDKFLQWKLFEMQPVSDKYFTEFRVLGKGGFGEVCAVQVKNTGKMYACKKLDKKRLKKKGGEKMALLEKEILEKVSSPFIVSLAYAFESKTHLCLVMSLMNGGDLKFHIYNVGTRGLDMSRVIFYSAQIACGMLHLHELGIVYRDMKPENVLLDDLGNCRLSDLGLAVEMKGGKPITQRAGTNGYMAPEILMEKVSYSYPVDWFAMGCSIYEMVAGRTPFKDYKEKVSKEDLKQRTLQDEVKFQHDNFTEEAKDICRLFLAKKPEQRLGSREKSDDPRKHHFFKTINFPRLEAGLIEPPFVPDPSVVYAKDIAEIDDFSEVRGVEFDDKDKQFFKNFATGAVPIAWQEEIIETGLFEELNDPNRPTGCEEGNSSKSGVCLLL

COc1cc(Nc2ncc3c(n2)-c2ccc(Cl)cc2C(c2c(F)cccc2OC)=NC3)ccc1C(=O)O
remaining activity (NEK2; kinase activity; 1 µM): 96%

Nc1nc2c(ncn2[C@@H]2O[C@H](COP(=O)(O)O)[C@@H](O)[C@H]2O)c(=O)[nH]1
reaction velocity (GUK1 (Homo sapiens, UniProt Q16774); enzyme activity, NADH-coupled; 500 µM, added: NaCl 150 mM): 0.0862 µM/s and 0.0882 µM/s and 0.0702 µM/s

COc1cc(-c2cncc3c2CN(C)Cc2cc(N4CCNCC4)ccc2-3)cc(OC)c1OC
remaining activity (EPHB4; kinase activity; 1 µM, human enzyme, added: ATP 10 µM; baseline: DMSO control): 101%

C=CC(=O)N1CCC([C@@H]2CCNc3c(C(N)=O)c(-c4ccc(Oc5ccccc5)cc4)nn32)CC1
remaining activity (ERBB2; kinase activity, inhibitor, HotSpot radiometric; 100 nM, added: ATP 10 µM): 103%

Cc1c(-c2ccc(N3CCc4cccc(C(=O)Nc5nc6ccccc6s5)c4C3)nc2C(=O)O)cnn1CC12CC3(C)CC(C)(C1)CC(OCCNCC[C@H](O)CO)(C3)C2
dP/dt at 50 change (beagle dog, male, anaesthetised; intravenous infusion, 0.3 mg/kg/min, 90 min; baseline: vehicle): -30%

O=C(O)c1ccc(Nc2ncc3c(n2)-c2ccc(Cl)cc2C(c2c(F)cccc2F)=NC3)cc1
remaining activity (human IKKß(h); kinase activity; 1 µM): 99%

CC(C)C[C@H](NC(=O)C[C@H](O)[C@H](CC(C)C)NC(=O)[C@H](Cc1c[nH]cn1)NC(=O)CNC(=O)[C@@H](NC(=O)[C@H](C)NC(=O)[C@H](Cc1c[nH]c2ccccc12)NC(=O)[C@H](CCC(N)=O)NC(=O)[C@@H](Cc1ccccc1)NC(=O)COCCOCCNC(=O)CCC(C(=O)O)N1CCN(CC(=O)O)CCN(CC(=O)O)CCN(CC(=O)O)CC1)C(C)C)C(N)=O (stereo partly shown) [lutetium-177 labelled]
tissue uptake (BALB/c nu/nu mice, blood; intravenous, 750 pmol, 1 h, added: PA 300 µg): 0.4 ± 0.1 %ID/g

COc1cc(N2CCN(C)CC2)ccc1Nc1nc(N)n(C(=O)NCc2ccccc2S(=O)(=O)C(C)C)n1
remaining activity (STK17B (Homo sapiens, UniProt O94768); enzyme activity; 10 µM; baseline: control): 1.6%

Fc1ccc(-c2nn3cc(F)ccc3c2-c2ccncc2)cc1
remaining activity (CSNK1A1 (Homo sapiens, UniProt P48729); kinase activity, inhibitor, ADP-Glo; 1.176 µM, 0.5 h): 42.3%

Cc1cc(Nc2cc(N3CCN(C)CC3)nc(Sc3ccc(NC(=O)C4CC4)cc3)n2)[nH]n1
remaining activity (CDC42BPB (Homo sapiens, UniProt Q9Y5S2); kinase activity, KinaseProfiler; 0.03 µM, species human; baseline: control): 95%

CC(C)Oc1cc(N2CCN(C)CC2)ccc1Nc1nc(N)n(C(=O)NCc2ccccc2S(=O)(=O)C(C)C)n1
remaining activity (HUNK; enzyme activity; 10 µM; baseline: control): 12%

c1cnc2ccc(Nc3nc(NC4CC4)c4nc[nH]c4n3)cc2c1
remaining activity (ERBB2; kinase activity, inhibitor, SelectScreen kinase profiling; 1 µM; baseline: control): 102%

O=C(NC1CCC1)c1ccc2nc(-c3cccc(NS(=O)(=O)NCCN4CCCCC4)c3)cn2c1
remaining activity (TAOK1 (Homo sapiens, UniProt Q7L7X3); enzyme activity; 10 µM): 98%

Nc1ncnc2c1ncn2[C@@H]1O[C@H](COP(=O)(O)CP(=O)(O)OP(=O)(O)O)[C@@H](O)[C@H]1O
calcium influx (P2X purinoceptor 1 (P2RX1, Homo sapiens, UniProt P51575, M214A); calcium influx; 10 µM; baseline: ionomycin response): 100%

C=CC(=O)N1CCC[C@@H](n2nc(-c3ccc(Oc4ccccc4)cc3)c3c(N)ncnc32)C1
remaining activity (TNK1 (Homo sapiens, UniProt Q13470); 0.1 µM): 209%

COc1cc(N2CCN(C)CC2)ccc1Nc1nc(N)n(C(=O)NCc2c(Cl)cccc2Cl)n1
remaining activity (HUNK; enzyme activity; 10 µM; baseline: control): 8%

CCCCCC/C(C)=N/Nc1ccc([N+](=O)[O-])cc1[N+](=O)[O-]
remaining activity (KDM4B; concentration not given): 62%

CC(C)C[C@H](NC(=O)C[C@H](O)[C@H](CC(C)C)NC(=O)[C@H](Cc1c[nH]cn1)NC(=O)CNC(=O)[C@@H](NC(=O)[C@H](C)NC(=O)[C@H](Cc1c[nH]c2ccccc12)NC(=O)[C@H](CCC(N)=O)NC(=O)[C@@H](Cc1ccccc1)NC(=O)COCCOCCNC(=O)CN1CCN(CC(=O)O)CCN(CC(=O)O)CCN(CC(=O)O)CC1)C(C)C)C(N)=O [lutetium-177 labelled]
tissue uptake (female BALB/c nu/nu mice, liver; intravenous, 50 pmol, 1 h): 0.31 ± 0.04 %ID/g

C[C@H]1[C@H](OC(=O)CCC(=O)O)O[C@@H]2O[C@@]3(C)CC[C@H]4[C@H](C)CC[C@@H]1[C@@]24OO3
remaining activity (Non-structural polyprotein pORF1, helicase domain (Hepatitis E virus genotype 1, UniProt P33424); ATPase activity, inhibitor, colorimetric; 78 µM; baseline: untreated): 44.7%

O=C1NC(=O)/C(=C/c2ccc(-c3ccc(F)cc3O)o2)S1
remaining activity (EPHB4; enzyme activity; 10 µM): 89%

Cn1cc(-c2ccc(-c3cncc(Cl)c3N3CCC4(CCNC4=O)CC3)cc2)cn1
log2 fold change (COLO 205; gene expression, microarray, item: TRAF1 mRNA; concentration not given, 2 h; baseline: untreated cells): 2.8

O=[N+]([O-])c1ccc(N=Nc2c(O)ccc3ccccc23)c([N+](=O)[O-])c1
remaining activity (KDM4B; concentration not given): 90%

COc1ccc(Cl)cc1-c1cc(=O)[nH]c(=S)n1CC(N)=O
remaining activity (Myeloperoxidase (MPO, Homo sapiens, UniProt P05164); 1.25 µM, 0.1 h): 46.3%

CN1CCC(c2cc(-c3ccncc3)c(-c3ccc(F)cc3)[nH]2)CC1
parasite growth (Plasmodium falciparum; nanoluciferase; 3D7 Hyp1-Nluc; 20 µM, 72 h; baseline: DMSO): 2.89%

N[C@@H]1CC[C@@H](c2ccc(Cl)c(Cl)c2)c2ccccc21
remaining activity (SLC6A3 (Homo sapiens, UniProt Q01959, S422A); dopamine uptake; 0.001 µM, 0.03333 h, S422A mutant, added: [3H]dopamine; baseline: no inhibitor): 106%

NCCCNCCCCNCCCN
Kd (MFS-type transporter SLC18B1 (SLC18B1, Homo sapiens, UniProt Q6NT16, W384A); binder): 181 µM

CC(C)C[C@H](N)C(=O)O
Bmax (snf (Aquifex aeolicus, UniProt O67854); scintillation proximity; 10 nM LeuT): 5680 ± 310 cpm/pmol LeuT

COc1cc(F)ccc1-c1ncnc(Nc2cccc(C[S@](C)(=N)=O)c2)n1
remaining activity (EPHA8 (Homo sapiens, UniProt P29322); kinase activity; 10 µM, added: 10 µM ATP): 90%

COc1cc(N2CCN(C)CC2)ccc1Nc1nc(N)n(C(=S)NCc2c(Cl)cccc2Cl)n1
remaining activity (GRK4 (Homo sapiens, UniProt P32298); enzyme activity; 10 µM; baseline: control): 0.25%

CNc1ncc2c(/C=C/C(=O)N3CCC(OC)CC3)nn(Cc3cccc(C(F)(F)F)c3)c2n1
remaining activity (GRK7 (Homo sapiens, UniProt Q8WTQ7); kinase activity, inhibitor; 1 µM; baseline: untreated control): 107%

CCn1cc(-c2cc(Cn3ccnc3)cc3c2CCN([C@H](c2cc(OC)ccn2)C2CC2)C3=O)c(C(F)(F)F)n1
EC50 (Pfeiffer; cell growth; 120 h): 2.26 µM

Repeated from above:
C=CC(=O)N1CCC([C@@H]2CCNc3c(C(N)=O)c(-c4ccc(Oc5ccccc5)cc4)nn32)CC1
remaining activity (ERBB2; kinase activity, inhibitor, HotSpot radiometric; 100 nM, added: ATP 10 µM): 103%

COc1ccc(Cl)cc1-c1cc(=O)[nH]c(=S)n1CC(N)=O
remaining activity (Myeloperoxidase (MPO, Homo sapiens, UniProt P05164); 1.25 µM, 0.1 h): 46.3%

C=CC(=O)N1CCC[C@@H](n2nc(-c3ccc(Oc4ccccc4)cc3)c3c(N)ncnc32)C1
remaining activity (TNK1 (Homo sapiens, UniProt Q13470); 0.1 µM): 209%

CC(C)C[C@H](NC(=O)C[C@H](O)[C@H](CC(C)C)NC(=O)[C@H](Cc1c[nH]cn1)NC(=O)CNC(=O)[C@@H](NC(=O)[C@H](C)NC(=O)[C@H](Cc1c[nH]c2ccccc12)NC(=O)[C@H](CCC(N)=O)NC(=O)[C@@H](Cc1ccccc1)NC(=O)COCCOCCNC(=O)CCC(C(=O)O)N1CCN(CC(=O)O)CCN(CC(=O)O)CCN(CC(=O)O)CC1)C(C)C)C(N)=O (stereo partly shown) [lutetium-177 labelled]
tissue uptake (BALB/c nu/nu mice, blood; intravenous, 750 pmol, 1 h, added: PA 300 µg): 0.4 ± 0.1 %ID/g
